Experimental data of several laboratories.
Lines come from different studies, so protocols differ. ± marks the error that the study gave. In brackets after ≈: the same amount, converted by molar mass.
cyp121: Mycocyclosin synthase (cyp121, Mycobacterium tuberculosis, UniProt P9WPP7)

Protein sequences, listed by entry. Tags and fused reporters are not part of them.
UniProt P9WPP7, whole entry: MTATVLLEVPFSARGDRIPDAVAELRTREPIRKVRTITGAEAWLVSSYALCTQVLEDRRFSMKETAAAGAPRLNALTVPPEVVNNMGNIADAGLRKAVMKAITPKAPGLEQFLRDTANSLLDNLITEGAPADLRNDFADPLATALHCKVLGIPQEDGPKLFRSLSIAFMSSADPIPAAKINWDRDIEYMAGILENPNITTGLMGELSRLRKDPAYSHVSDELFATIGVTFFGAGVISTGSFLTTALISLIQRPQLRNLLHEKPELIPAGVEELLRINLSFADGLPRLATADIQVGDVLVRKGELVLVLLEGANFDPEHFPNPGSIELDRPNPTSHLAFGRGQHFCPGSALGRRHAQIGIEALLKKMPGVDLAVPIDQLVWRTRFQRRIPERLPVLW

Cc1ccc(S(=O)(=O)Nc2cccc(C(=O)NC3CCN(c4ncnc5[nH]cnc45)CC3)c2)cc1 gave an inhibition of 68.3% (HCoV-OC43; viral infection; concentration not given).
For O=S(=O)(O)c1ccc2cc(S(=O)(=O)O)ccc2c1, “MIC of ampicillin” read 128 µg/mL (Escherichia coli; bacterial growth, broth microdilution; expressing OXA-48; 64 µg/mL, with: ampicillin; MIC of ampicillin).
The Kd of CC(C)(C)[Si](OCCC(c1ccc(-c2ccc(F)cc2)cc1)n1ccnc1)(c1ccccc1)c1ccccc1 (centres unmarked) is reported as 3.1 ± 0.73 µM (cyp121; binding).
With COc1cc(-c2ccccc2C)cc(C(C)C#Cc2c(C)nc(N)nc2N)c1 (racemic) the MIC was 23 µg/mL (≈ 61.7 µM) (Candida glabrata; Alamar Blue).
With NC[C@@H](NC[C@@H]1CCCN1C[C@@H](CO)NC[C@@H](NCCC1CC2CCC1C2)c1ccccc1)c1ccccc1 (some centres unmarked) the IC50 was greater than 24 µM (Klebsiella pneumoniae; bacterial growth; compound alone).
O=S(=O)(O)c1ccc2c(c1)Cc1cc(S(=O)(=O)O)ccc1-2 — result for “MIC of ampicillin”: 64 µg/mL (Escherichia coli; bacterial growth, broth microdilution; expressing OXA-48; 128 µg/mL, with: ampicillin; MIC of ampicillin).
For C[C@H](CS)C(=O)N[C@H](Cc1c[nH]c2ccccc12)C(=O)O, “MIC of meropenem” read 0.5 µg/mL (Enterobacter aerogenes; VIM-1 producing; 50 µM, with: meropenem).
For COc1ccc(S(=O)(=O)Nc2cccc(C(=O)NC3CCN(c4ncnc5[nH]cnc45)CC3)c2)cc1[N+](=O)[O-], the inhibition was 64.1% (HCoV-OC43; viral infection; concentration not given).
Nc1cc(S(=O)(=O)O)cc2cc(S(=O)(=O)O)cc(O)c12 — result for “MIC of ampicillin”: 512 µg/mL (Escherichia coli; bacterial growth, broth microdilution; expressing OXA-48; 8 µg/mL, with: ampicillin; MIC of ampicillin).
For O=c1c2ccc(Oc3ccc(OC(F)(F)F)cc3)cc2[nH]c2cc(F)cc(F)c12, the EC50 was 0.08 nM (Toxoplasma gondii; parasite growth; RH cytochrome b T222P).
O=S(=O)(O)c1ccc(-c2ccc(S(=O)(=O)O)cc2)cc1 — result for “MIC of ampicillin”: 256 µg/mL (Escherichia coli; bacterial growth, broth microdilution; expressing OXA-48; 32 µg/mL, with: ampicillin; MIC of ampicillin).
CCCCCCCCCCCCNC(=O)N[C@H](C(=O)N[C@H]1/C=C/CCNC(=O)/C=C/[C@H](C)NC1=O)C(C)C gave an EC50 of 202 ± 10 nM (Granta bortezomib-resistant; cell viability, CellTiter-Glo; 24 h).
O=C(O)c1ccc(-c2cccc(C(=O)O)c2)cc1 — result for “MIC of ampicillin”: 512 µg/mL (Escherichia coli; bacterial growth, broth microdilution; expressing OXA-48; 8 µg/mL, with: ampicillin; MIC of ampicillin).
For CO[C@H]1[C@H](O[C@H]([C@H]2O[C@@H](n3ccc(=O)[nH]c3=O)[C@H](O)[C@@H]2O)[C@H](NCCCNC(=O)[C@@H](NC(=O)[C@@H](NC(=O)N[C@H](C(=O)O)C(C)C)[C@@H]2CCNC(=N)N2)[C@@H](OC(=O)CCCCCCCCCCCCNC(=N)N)C(C)C)C(N)=O)O[C@H](CN)[C@H]1O, the MIC was 0.08 µg/mL (≈ 0.0668 µM) (Mycobacterium spp.).
CCc1nc(N)nc(N)c1C#C[C@@H](C)c1cc(OC)cc(-c2ccncc2)c1 gave an MIC of 0.0391 µg/mL (≈ 0.105 µM) (Staphylococcus aureus; broth microdilution; ATCC 43300 MRSA; 18 h, 37 °C).
Under “potentiation of amikacin”, CC(CCN[C@H](CN[C@H](CO)CN1CCC[C@H]1CN[C@H](CN)c1ccccc1)c1ccccc1)c1ccccc1 (some centres unmarked) is recorded as 4.6 fold (Acinetobacter baumannii; bacterial growth; 24 µM, fold shift of IC50, with: amikacin).
For COCCCNc1cc(C(=O)NC2CC3CCC(C2)N3c2ccc(C(=O)NCc3ccccc3)cn2)ccc1C(N)=O (centres unmarked), the EC50 was 1200 ± 160 nM (Plasmodium berghei; luciferase; Huh-7, ANKA; 44 h post-infection, liver stage).
The IC50 of NC[C@@H](NC[C@@H]1CCCN1C[C@@H](CO)NC[C@@H](NCCC12CC3CC(CC(C3)C1)C2)c1ccccc1)c1ccccc1 is reported as greater than 24 µM (Klebsiella pneumoniae; bacterial growth; compound alone).
CCC(c1ccc(-c2ccc(SC)s2)cc1)n1ccnc1 (centres unmarked) has a Kd of 4.5 ± 0.88 µM (cyp121; binding).
With NC[C@@H](NC[C@@H]1CCCN1C[C@@H](CO)NC[C@@H](NCCc1ccc(Cl)c(Cl)c1)c1ccccc1)c1ccccc1 the IC90 was 15.1 µM (Acinetobacter baumannii; bacterial growth; compound alone).
For CC(C)=C1CC[C@]23CO[C@H](C2)[C@@](O)(C(=O)O)CC[C@@H]13, the hypocotyl length was 1.37 cm (Arabidopsis thaliana; Col-0, seedlings; 50 µg/mL, with: BCAA).
With NC[C@@H](NC[C@@H]1CCCN1C[C@@H](CO)NC[C@@H](NCCc1ccc(-c2ccccc2)cc1)c1ccccc1)c1ccccc1 the IC90 was 22.3 µM (Escherichia coli; bacterial growth; compound alone).
O=c1c2ccc(Oc3ccc(OC(F)(F)F)cc3)cc2[nH]c2cc(F)cc(Cl)c12 has an EC50 ratio of 0.7 (Toxoplasma gondii; parasite growth; T222P mutant; relative to: T222P over RH strain).

Excerpt of the above:
O=S(=O)(O)c1ccc2c(c1)Cc1cc(S(=O)(=O)O)ccc1-2 — result for “MIC of ampicillin”: 64 µg/mL (Escherichia coli; bacterial growth, broth microdilution; expressing OXA-48; 128 µg/mL, with: ampicillin; MIC of ampicillin).
For O=S(=O)(O)c1ccc2cc(S(=O)(=O)O)ccc2c1, “MIC of ampicillin” read 128 µg/mL (Escherichia coli; bacterial growth, broth microdilution; expressing OXA-48; 64 µg/mL, with: ampicillin; MIC of ampicillin).
